Measured values of several laboratories.
Lines come from different studies, so protocols differ. ± marks the error that the study gave.

Sequences of proteins named here, by UniProt entry; tags and fusion partners are left off.
UniProt P10635, whole entry: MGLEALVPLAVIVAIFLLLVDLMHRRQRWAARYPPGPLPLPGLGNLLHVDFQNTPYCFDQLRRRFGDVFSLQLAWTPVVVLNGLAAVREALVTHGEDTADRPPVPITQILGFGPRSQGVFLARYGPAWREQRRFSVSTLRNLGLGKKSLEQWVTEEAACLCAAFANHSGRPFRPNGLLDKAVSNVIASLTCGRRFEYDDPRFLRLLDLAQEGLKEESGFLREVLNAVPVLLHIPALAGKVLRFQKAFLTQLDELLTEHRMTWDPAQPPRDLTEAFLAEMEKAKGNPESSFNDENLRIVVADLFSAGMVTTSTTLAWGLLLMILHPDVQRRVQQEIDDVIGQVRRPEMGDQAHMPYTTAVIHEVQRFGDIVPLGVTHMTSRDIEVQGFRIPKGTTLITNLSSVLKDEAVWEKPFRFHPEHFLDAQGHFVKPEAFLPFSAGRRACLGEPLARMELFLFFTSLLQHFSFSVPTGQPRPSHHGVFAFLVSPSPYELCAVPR
UniProt P11712, whole entry: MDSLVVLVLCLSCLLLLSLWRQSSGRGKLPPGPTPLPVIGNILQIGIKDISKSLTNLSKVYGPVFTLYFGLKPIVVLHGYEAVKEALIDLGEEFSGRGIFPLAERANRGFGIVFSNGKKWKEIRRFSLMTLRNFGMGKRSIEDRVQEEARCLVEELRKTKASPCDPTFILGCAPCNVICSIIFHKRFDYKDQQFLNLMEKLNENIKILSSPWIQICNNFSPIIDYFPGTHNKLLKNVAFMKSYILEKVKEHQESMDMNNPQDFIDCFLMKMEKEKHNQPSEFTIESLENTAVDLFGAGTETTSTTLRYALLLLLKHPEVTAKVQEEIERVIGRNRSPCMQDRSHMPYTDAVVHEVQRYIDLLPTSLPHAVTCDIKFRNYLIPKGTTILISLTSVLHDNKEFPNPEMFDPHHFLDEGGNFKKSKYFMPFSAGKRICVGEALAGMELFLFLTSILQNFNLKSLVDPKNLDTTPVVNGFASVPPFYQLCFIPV
UniProt P51532, whole entry, looked up: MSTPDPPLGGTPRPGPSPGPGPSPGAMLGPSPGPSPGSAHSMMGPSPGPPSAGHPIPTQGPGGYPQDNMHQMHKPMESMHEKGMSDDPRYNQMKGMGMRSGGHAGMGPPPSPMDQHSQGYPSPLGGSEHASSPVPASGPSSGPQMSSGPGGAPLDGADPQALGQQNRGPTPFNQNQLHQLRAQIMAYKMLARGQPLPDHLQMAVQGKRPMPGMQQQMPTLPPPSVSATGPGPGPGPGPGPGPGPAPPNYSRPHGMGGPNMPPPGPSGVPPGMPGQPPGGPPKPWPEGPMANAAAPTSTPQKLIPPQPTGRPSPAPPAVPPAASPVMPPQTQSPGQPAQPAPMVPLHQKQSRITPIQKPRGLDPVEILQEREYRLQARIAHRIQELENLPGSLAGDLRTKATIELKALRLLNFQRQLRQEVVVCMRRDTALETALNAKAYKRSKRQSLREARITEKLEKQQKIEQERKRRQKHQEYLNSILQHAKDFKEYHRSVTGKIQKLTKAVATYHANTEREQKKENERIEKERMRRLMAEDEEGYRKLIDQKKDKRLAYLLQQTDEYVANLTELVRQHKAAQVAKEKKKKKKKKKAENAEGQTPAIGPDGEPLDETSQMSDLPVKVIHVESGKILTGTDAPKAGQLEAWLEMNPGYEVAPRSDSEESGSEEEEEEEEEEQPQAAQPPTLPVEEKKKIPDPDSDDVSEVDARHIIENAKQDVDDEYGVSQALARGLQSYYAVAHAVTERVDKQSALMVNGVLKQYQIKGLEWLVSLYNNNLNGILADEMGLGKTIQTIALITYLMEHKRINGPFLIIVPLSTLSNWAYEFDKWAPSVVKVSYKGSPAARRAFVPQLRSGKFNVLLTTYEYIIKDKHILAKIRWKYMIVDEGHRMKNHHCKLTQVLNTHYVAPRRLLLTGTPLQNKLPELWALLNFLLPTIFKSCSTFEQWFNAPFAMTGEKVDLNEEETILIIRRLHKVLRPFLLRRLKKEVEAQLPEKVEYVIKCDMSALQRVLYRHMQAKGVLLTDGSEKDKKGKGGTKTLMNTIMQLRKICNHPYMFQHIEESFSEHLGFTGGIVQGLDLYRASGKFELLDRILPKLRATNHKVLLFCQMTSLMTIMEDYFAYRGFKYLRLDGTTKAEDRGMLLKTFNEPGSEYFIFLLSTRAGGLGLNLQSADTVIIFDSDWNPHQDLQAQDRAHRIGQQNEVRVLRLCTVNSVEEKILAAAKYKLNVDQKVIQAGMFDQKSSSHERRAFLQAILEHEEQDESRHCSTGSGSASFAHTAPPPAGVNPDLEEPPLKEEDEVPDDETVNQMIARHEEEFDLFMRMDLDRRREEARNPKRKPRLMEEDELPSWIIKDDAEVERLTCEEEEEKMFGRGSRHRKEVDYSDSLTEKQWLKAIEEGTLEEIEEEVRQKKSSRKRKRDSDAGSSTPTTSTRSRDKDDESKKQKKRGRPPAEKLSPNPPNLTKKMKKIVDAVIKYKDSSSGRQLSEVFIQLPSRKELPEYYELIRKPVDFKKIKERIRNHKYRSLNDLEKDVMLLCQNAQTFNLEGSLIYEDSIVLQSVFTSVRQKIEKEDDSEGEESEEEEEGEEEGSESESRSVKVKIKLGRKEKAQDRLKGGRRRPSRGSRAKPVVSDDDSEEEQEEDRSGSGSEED
UniProt P08684, whole entry: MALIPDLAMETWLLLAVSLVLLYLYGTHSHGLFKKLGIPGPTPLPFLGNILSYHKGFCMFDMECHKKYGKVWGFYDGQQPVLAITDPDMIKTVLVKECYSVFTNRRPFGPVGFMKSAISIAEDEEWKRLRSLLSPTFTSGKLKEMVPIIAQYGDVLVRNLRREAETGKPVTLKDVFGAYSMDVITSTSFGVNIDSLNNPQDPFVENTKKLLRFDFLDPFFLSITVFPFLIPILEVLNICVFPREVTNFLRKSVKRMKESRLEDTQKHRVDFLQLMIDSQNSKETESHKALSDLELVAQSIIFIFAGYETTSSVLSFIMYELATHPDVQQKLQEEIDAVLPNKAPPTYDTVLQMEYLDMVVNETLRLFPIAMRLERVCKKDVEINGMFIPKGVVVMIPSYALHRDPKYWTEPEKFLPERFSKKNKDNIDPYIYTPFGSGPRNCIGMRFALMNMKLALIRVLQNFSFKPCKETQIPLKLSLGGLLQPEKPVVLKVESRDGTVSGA
UniProt P46934, whole entry, looked up: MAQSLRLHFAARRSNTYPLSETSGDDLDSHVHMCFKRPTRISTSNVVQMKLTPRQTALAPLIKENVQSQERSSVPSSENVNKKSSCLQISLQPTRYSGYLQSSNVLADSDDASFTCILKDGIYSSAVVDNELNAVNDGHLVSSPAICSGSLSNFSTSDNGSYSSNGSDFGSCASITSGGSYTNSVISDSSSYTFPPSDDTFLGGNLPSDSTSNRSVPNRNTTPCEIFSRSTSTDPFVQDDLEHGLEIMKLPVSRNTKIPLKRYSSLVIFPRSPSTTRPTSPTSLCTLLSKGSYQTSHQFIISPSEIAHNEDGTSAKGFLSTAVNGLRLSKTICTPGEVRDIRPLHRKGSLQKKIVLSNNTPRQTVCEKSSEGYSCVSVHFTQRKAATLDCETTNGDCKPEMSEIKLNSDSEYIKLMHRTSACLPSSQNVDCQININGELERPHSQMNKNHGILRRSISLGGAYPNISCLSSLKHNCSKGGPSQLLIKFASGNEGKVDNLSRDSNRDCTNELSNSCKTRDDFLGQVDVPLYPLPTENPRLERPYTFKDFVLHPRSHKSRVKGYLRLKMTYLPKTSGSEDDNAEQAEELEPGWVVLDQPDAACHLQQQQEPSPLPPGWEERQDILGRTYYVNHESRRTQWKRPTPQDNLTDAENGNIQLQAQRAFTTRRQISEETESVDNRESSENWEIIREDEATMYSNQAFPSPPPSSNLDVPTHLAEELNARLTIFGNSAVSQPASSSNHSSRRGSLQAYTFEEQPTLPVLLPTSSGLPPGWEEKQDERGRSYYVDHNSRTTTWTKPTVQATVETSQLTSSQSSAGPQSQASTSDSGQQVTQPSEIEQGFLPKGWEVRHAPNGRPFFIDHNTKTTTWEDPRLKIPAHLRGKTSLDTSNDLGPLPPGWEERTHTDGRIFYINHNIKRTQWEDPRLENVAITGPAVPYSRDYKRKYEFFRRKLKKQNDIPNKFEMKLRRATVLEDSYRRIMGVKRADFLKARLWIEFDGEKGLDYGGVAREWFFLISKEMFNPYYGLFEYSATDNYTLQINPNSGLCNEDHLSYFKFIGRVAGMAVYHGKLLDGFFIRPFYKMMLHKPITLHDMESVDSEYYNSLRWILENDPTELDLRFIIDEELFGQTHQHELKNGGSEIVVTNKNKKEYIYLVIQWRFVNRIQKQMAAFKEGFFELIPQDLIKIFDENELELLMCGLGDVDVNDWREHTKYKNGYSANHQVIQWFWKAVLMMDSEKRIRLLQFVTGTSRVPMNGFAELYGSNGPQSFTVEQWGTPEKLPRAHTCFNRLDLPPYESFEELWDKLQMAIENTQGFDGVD

SMILES | tested on | test | system | conditions | how to read | quantity | result
COc1cc([C@@H]2c3cc4c(cc3[C@@H](C=C(C)C)[C@H]3COC(=O)[C@H]23)OCO4)cc(OC)c1OC | HepG2 | Alamar Blue |  | 48 h |  | CC50 | > 100 µM
Cc1cc(SCc2sc(-c3ccc(Cl)cc3)nc2C)ccc1OCC(=O)O | HEK293T |  |  | 18 h |  | CC50 | > 100 µM
CC(C)c1ccc(NC(=O)C2CC3CCC2C3)cc1 (stereo not shown) | Cytochrome P450 2D6 (CYP2D6, Homo sapiens, UniProt P10635) | enzyme activity, inhibitor |  |  |  | IC50 | > 30 µM
Cc1ncsc1-c1ccc([C@H](C)NC(=O)[C@@H]2C[C@@H](O)CN2C(=O)[C@@H](NC(=O)CCCCCCC(=O)N2CCN(C[C@]3(C)CCC(c4ccc(Cl)cc4)=C(CN4CCN(c5ccc(C(=O)NS(=O)(=O)c6ccc(N[C@H](CCN7CCOCC7)CSc7ccccc7)c(S(=O)(=O)C(F)(F)F)c6)cc5)CC4)C3)CC2)C(C)(C)C)cc1 |  |  | STAM mice NASH-HCC model, liver | day 150, treated days 90-150 |  | liver fibrosis | decreased
Cc1ccccc1OCCCSCc1nc2ccccc2[nH]1 | SW480 tumour organoids | cytotoxicity, 3D culture |  | 72 h |  | IC50 | 34.1 µM
Cc1ccc(C(=O)Nc2ccccc2C(=O)O)cc1S(=O)(=O)NC1CCCCCC1 | Replication protein A 70 kDa DNA-binding subunit, N-terminal domain (RPA1, Homo sapiens, UniProt P27694) | binding, fluorescence polarisation competition |  | together with: FITC-ATRIP probe |  | Kd | 110 ± 4 µM
COc1ccc(S(=O)(=O)N2CCCN(CC(=O)Nc3ccc(OC)cc3OC)CC2)cc1 | Cytochrome P450 2C9 (CYP2C9, Homo sapiens, UniProt P11712) | enzyme activity, inhibitor |  |  |  | IC50 | 1.8 µM
C=CC(=O)N1CCC(c2cc(Nc3cc4n(n3)CCOC4)c3ncnn3c2)C1 (single isomer, unassigned) | Ramos | calcium flux, FLIPR |  | 4 h preincubation, together with: anti-IgM |  | maximum inhibition | 27.4%
Cc1cccc(C2NC(=O)c3c(Cl)cccc3N2)c1 (racemic) | SMARCA4 (Homo sapiens, UniProt P51532) | ITC |  | bromodomain, wild type |  | Kd | > 70 µM
CCOC(=O)C1=C(C)NC2=C(C(=O)CC(C)(C)C2)C1c1ccc(OCC(=O)NN=Cc2cccc(C=O)c2)cc1OCC(=O)NN=Cc1cccc(C=O)c1 (stereo not shown) | Bacillus subtilis |  | ATCC 6337 | concentration not given, 24 h |  | inhibition zone diameter | 4.3 ± 0.3 mm
COC(=O)[C@@H]1C(C=Nc2ccccc2)=Cc2cc3c(cc2[C@H]1c1cc(OC)c(OC)c(OC)c1)OCO3 | mouse splenocytes uninfected | Alamar Blue |  | 48 h |  | CC50 | > 100 µM
Cc1cc(SCc2sc(-c3cc(F)cc(Cl)c3)nc2C)ccc1OCC(=O)O | HEK293T |  |  | 18 h |  | CC50 | > 50 µM
CCOc1ccccc1Nc1nnc(SCC(=O)Nc2cc(F)ccc2F)s1 | WI-38 | cytotoxicity |  |  |  | IC50 | > 100 µM
Cc1c(-c2ccccc2)nn2c(=O)cc(-c3cccc(-c4nnn[nH]4)c3)[nH]c12 |  |  | mouse | 10 mg/kg, 24 h |  | plasma level | not detected
Cc1cc(SCc2sc(-c3ccc(OC(F)(F)F)c(Cl)c3)nc2C)ccc1OCC(=O)O | HEK293T |  |  | 18 h |  | CC50 | > 50 µM
Nc1ncc(-c2ccc3ncnc(N4CCc5cc(F)c(Cl)cc54)c3c2)cn1 |  |  | CD1 mouse, plasma | oral, 100 mg/kg |  | Tmax | 8 h
Cc1cc(SCc2sc(-c3ccc4c(c3)OCCO4)nc2C)ccc1OCC(=O)O | HEK293T |  |  | 18 h |  | CC50 | > 80 µM

SMILES | tested on | test | system | conditions | how to read | quantity | result
COc1ccc(CC(=O)OCc2ccc(-n3cccn3)cc2)cc1F | Cytochrome P450 3A4 (CYP3A4, Homo sapiens, UniProt P08684) | inhibitor |  | 10 µM |  | inhibition | 13.4%
CCOc1ccc(S(=O)(=O)NC(=O)Cc2ccc(I)cc2)cc1Br | MDCKII-MDR1 |  |  |  | reference: B-A over A-B | efflux ratio | 1.35
Cc1cc(SCc2sc(-c3ccc4cn[nH]c4c3)nc2C)ccc1OCC(=O)O | HEK293T |  |  | 18 h |  | CC50 | > 100 µM
Cc1n[nH]c(C)c1CCOC(=O)c1cccc2c1oc(=O)n2C |  |  | BALB/c mouse, plasma | intravenous, 2 mg/kg |  | Cmax | 3280 ng/mL
CC(C)n1nnc(-c2cc(O)cc(Nc3ncnn4ccc(CN5CCC(N)CC5)c34)c2)n1 |  |  | mouse | subcutaneous, 30 mg/kg, 90 min |  | brain to plasma ratio | 0.01
COc1cc([C@@H]2c3cc4c(cc3C=C(C=O)[C@H]2C(=O)OCCCBr)OCO4)cc(OC)c1OC | mouse splenocytes uninfected | Alamar Blue |  | 48 h |  | CC50 | 98.2 ± 10.2 µM
Cc1cc(SCc2sc(-c3ccc(C#N)cc3)nc2C)ccc1OCC(=O)O | HEK293T |  |  | 18 h |  | CC50 | > 80 µM
CCn1nccc1N=CC1=Cc2cc3c(cc2[C@@H](c2cc(OC)c(OC)c(OC)c2)[C@@H]1C(=O)OC)OCO3 | HepG2 | Alamar Blue |  | 48 h |  | CC50 | > 100 µM
CCCSc1nc(N[C@@H]2C[C@H]2c2ccc(F)c(F)c2)c2nnn([C@@H]3C[C@H](O)[C@@H](O)[C@H]3O)c2n1 |  |  | rat, female, plasma | oral, 60 mg/kg/day ticagrelor, week 52 |  | AUC | 39.4 µM·h
CCCCNCC1=Cc2cc3c(cc2[C@@H](c2cc(OC)c(OC)c(OC)c2)[C@@H]1C(=O)OC)OCO3 | mouse splenocytes uninfected | Alamar Blue |  | 48 h |  | CC50 | > 100 µM
Cc1cc(NC(=O)c2cccc(NC(=O)C3=CC(C)(C)CCC3=O)c2)ccc1Nc1nccc(-c2cccnc2)n1 |  |  | rat plasma | 1 µM, 30 min |  | compound remaining | 102%
CCOC(=O)COC(=O)[C@@H]1C(C=O)=Cc2cc3c(cc2[C@H]1c1cc(OC)c(OC)c(OC)c1)OCO3 | HepG2 | Alamar Blue |  | 48 h |  | CC50 | 10.4 ± 0.8 µM
Cc1cc(SCc2sc(-c3cccc4[nH]ccc34)nc2C)ccc1OCC(=O)O | HEK293T |  |  | 18 h |  | CC50 | not toxic
COC(=O)[C@@H]1C(C=Nc2ccccc2O)=Cc2cc3c(cc2[C@H]1c1cc(OC)c(OC)c(OC)c1)OCO3 | mouse splenocytes uninfected | Alamar Blue |  | 48 h |  | CC50 | > 100 µM
Cc1cc(SCc2sc(-c3ccccc3)nc2C)ccc1OCC(=O)O | HEK293T |  |  | 18 h |  | CC50 | > 100 µM
COc1cc([C@@H]2c3cc4c(cc3[C@@H](OC(C)C)[C@H]3COC(=O)[C@H]23)OCO4)cc(OC)c1OC | HepG2 | Alamar Blue |  | 48 h |  | CC50 | > 100 µM
CCOC(=O)/C=C/CNCCCCN1c2ccccc2CCc2ccc(Cl)cc21 | E3 ubiquitin-protein ligase NEDD4 (Homo sapiens, UniProt P46934) | inhibitor, Ub-TR-FRET |  | 100 µM, 1 h preincubation, HECT domain, DMSO up to 2%, together with: ATP 2 mM | higher = more ubiquitination | ubiquitination TR-FRET signal AUC | 16500 a.u.
